Measurements pooled from the literature.
Numbers after ± are the reported error.

For `CN1/C(=C/C=C/c2cc(-c3ccccc3)cc(-c3ccccc3)[o+]2)C(C)(C)c2ccccc21`, “AUC extrapolated fraction” read 4.38% (mouse CD1, male, plasma; intravenous, 1 mg/kg).
`COc1ccc(-c2ccn(CC[C@](C)(C(=O)NO)S(C)(=O)=O)c(=O)c2)c(F)c1` has an AUC of 76300 ± 960 ng·h/mL (CF-1 mouse, female; subcutaneous, 300 mg/kg).
`N=C(N)NCCC[C@@H]1NC(=O)[C@H](Cc2c[nH]c3ccccc23)NC(=O)[C@@H](CC2CCCCC2)NC(=O)[C@@H]2CCCN2C(=O)[C@@H](NC(=O)CCc2ccccc2)CCCNC1=O` has an AUC of 3470 ng·h/mL (C57BL/6J mouse, plasma; intravenous, 1 mg/kg, single dose).
`CCC(=O)N(C)c1ccc(Cl)c(Cl)c1` gave an AUC extrapolated of 3.96% (LC-MS/MS; mouse C57BL/6 female, plasma; intravenous, 2 mg/kg).
The AUC of `CN(C)CCNC(=O)/C=C/[C@H](Cc1ccccc1)Nc1ccnc2cc(Cl)ccc12` is reported as 30.1 ng·h/mL (ICR mouse healthy, plasma; oral, 5 mg/kg).
`Cc1cc(C)c(S(=O)(=O)N(CC(=O)O)c2ccc(Nc3ccnc(N4CCCC4)n3)cc2)c(C)c1` has an AUC of 52200 ng·h/mL (BALB/c nude mouse HCT-116 xenograft, plasma; intraperitoneal, 100 mg/kg).
`CC(C)CCN(c1nc(C#N)nc(NC2COC2)n1)C(C)c1ccc(F)cc1` (stereo not shown) has an AUC brain of 868 ng·h/g (CD-1 mouse female, brain; intraperitoneal, 10 mg/kg).
For `CCc1nc(N)nc(N)c1C#C[C@H](C)c1cc(-c2cc(C)nc(C)c2)ccc1Cl`, the AUC was 2600 ng·h/mL (mouse, plasma; oral, 16 mg/kg).
For `CC(C)CCN(Cc1ccc(F)cc1)c1nc(C#N)nc(N2CCOCC2)n1`, the AUC brain was 119 ng·h/g (CD-1 mouse female, brain; intraperitoneal, 10 mg/kg).
For `Cc1cc2c(c(=O)o1)C=C1CCC(C(C)CNCc3ccc(O)cc3)CC1O2` (stereo not shown), the AUC was 16500 ng·h/mL (mouse, plasma; intravenous, dose not given).
With `C=CC(=O)Nc1cc(Nc2nccc(-n3ccc4nc(OC)ccc43)n2)c(OC)cc1N(C)CCN(C)C` the AUC was 28300 ng·h/g (BALB/c nude mouse, H1975 xenograft, tumour; oral, 60 mg/kg).
`CCCCCCCCCCCCCCCCCC(=O)Nc1ccn(C2OC(CO)C(O)C2(F)F)c(=O)n1` (stereo not shown) gave an AUC of 58.3 ± 5.03 µM·h (athymic nude mouse, female, BxPC-3 xenograft, plasma; intravenous, 25 mg/kg gemcitabine equivalent).
`CCS(=O)(=O)c1ccccc1C(=O)N1CCN(c2nc3ccc(F)cc3s2)C[C@@H]1C` gave an AUC of 181 ± 28 ng·h/mL (mouse, brain; oral, 3 mg/kg).

A few entries again:
For `CCc1nc(N)nc(N)c1C#C[C@H](C)c1cc(-c2cc(C)nc(C)c2)ccc1Cl`, the AUC was 2600 ng·h/mL (mouse, plasma; oral, 16 mg/kg).
For `CC(C)CCN(Cc1ccc(F)cc1)c1nc(C#N)nc(N2CCOCC2)n1`, the AUC brain was 119 ng·h/g (CD-1 mouse female, brain; intraperitoneal, 10 mg/kg).
